Assay results gathered from unrelated publications.
Cell line: HEK293

| Structure (SMILES) | assay | setting | measurement | result |
| --- | --- | --- | --- | --- |
| CC[C@H](C)[C@H](NC(=O)[C@H](CCCNC(=N)N)NC(=O)[C@H](Cc1ccccc1)NC(=O)[C@H](CC(C)C)NC(=O)[C@H](CCCCN)NC(=O)[C@H](CO)NC(=O)[C@@H](NC(=O)[C@H](CC(C)C)NC(=O)[C@H](CCCCN)NC(=O)[C@H](C)NC(=O)[C@H](CC(N)=O)NC(=O)[C@H](CCCNC(=N)N)NC(=O)[C@H](Cc1ccc(O)cc1)NC(=O)[C@H](C)NC(=O)[C@@H](NC(=O)[C@H](CCCCN)NC(=O)[C@H](CC(N)=O)NC(=O)[C@H](CCCCN)NC(=O)[C@H](CC(C)C)NC(=O)[C@H](CO)NC(=O)[C@H](CC(C)C)NC(=O)[C@H](C)NC(=O)[C@H](C)NC(=O)[C@H](CO)NC(=O)[C@@H](NC(=O)[C@@H](NC(=O)[C@H](Cc1c[nH]c2ccccc12)NC(=O)[C@@H](NC(=O)[C@H](CO)NC(=O)[C@@H](NC(=O)[C@@H](N)CC(C)C)C(C)C)C(C)C)[C@@H](C)CC)[C@@H](C)CC)C(C)C)C(C)C)C(=O)N[C@@H](C)C(=O)N[C@@H](CC(C)C)C(=O)O | MTT | 128 µg/mL, 24 h | cell death | 12.2% |
| CC1(c2ccc(F)cc2F)OOC2(CCN(C(=O)c3ccccc3)CC2)OO1 | cell growth or viability, MTT | 72 h | CC50 | > 100 µg/mL |
| C[C@H](Nc1c(-c2c(F)cc(OCCCN(C)C)cc2F)c(Cl)nc2ncnn12)C(F)(F)F | cell growth or viability, ATP luminescence | 48 h | CC50 | 0.0261 µM |
| C=C(C)[C@@H]1CC[C@]2(/C=N/NC(=O)c3ccncc3)CC[C@]3(C)[C@H](CC[C@@H]4[C@@]5(C)CCCNC(C)(C)[C@@H]5CC[C@]43C)[C@@H]12 | cell growth or viability, resazurin | 20 h | CC50 | > 20 µM |
| CN1C(=O)[C@@H]2NC(=O)[C@@H]3NC(=O)[C@@H](c4ccc(O)cc4)NC(=O)[C@H](NC(=O)C(N)c4ccc(O)cc4)Cc4c[nH]c5cc(ccc45)-c4cc3cc(c4O)Oc3ccc(cc3)C[C@H]1C(=O)N[C@@H](C(=O)NCCCN)c1ccc(O)c(c1)Oc1ccc2cc1 (some centres unmarked) | cell viability, CellTiter-Glo | 48 h | concentration without cytotoxicity | > 256 µg/mL |
| CC1(C2CC2)OOC2(CCN(C(=O)c3ccccc3)CC2)OO1 | cell growth or viability, MTT | 72 h | CC50 | > 100 µg/mL |
| NCCCC[C@@H]1NC(=O)[C@H](CO)NC(=O)[C@H](CCC(N)=O)NC(=O)[C@H](Cc2ccccc2)NC(=O)Cc2ccc(cc2)CCNC1=O | LDH release | up to 256 µM, 72 h | cytotoxicity | not toxic |
| CN1CCC(NCCC2(Cc3ccc(Cl)cc3)CCCCC2)CC1 | cell viability, CellTiter-Glo | 48 h, tested up to 60 µM | LD50 | 20 µM |
| CCC1(c2ccccc2)OOC2(CCN(C(=O)c3ccccc3)CC2)OO1 | cell growth or viability, MTT | 72 h | CC50 | > 100 µg/mL |
| CC(C)OC(=O)C(n1cccn1)n1cccn1.F[P-](F)(F)(F)(F)F.[Cu+].c1ccc(P(c2ccccc2)c2ccccc2)cc1 | cell growth or viability, MTT |  | IC50 | 10.6 µM |
| CC(C)C[C@H](NC(=O)CN)C(=O)N[C@@H](CC(C)C)C(=O)N[C@@H](CCCCN)C(=O)N[C@@H](CC(C)C)C(=O)N[C@@H](CC(C)C)C(=O)N[C@@H](CCCCN)C(=O)N[C@@H](CCCCN)C(=O)N[C@@H](CC(C)C)C(=O)N[C@@H](CC(C)C)C(=O)N[C@@H](CCCCN)C(=O)N[C@@H](CC(C)C)C(=O)N[C@@H](CC(C)C)C(=O)N[C@@H](CCCCN)C(N)=O | cytotoxicity |  | CC50 | 12 µM |
| CN(C)CCCNC(=O)[C@@H]1NC(=O)[C@@H]2Cc3ccc(cc3)Oc3cc4cc(c3O)-c3ccc5c(c[nH]c5c3)C[C@@H](NC(=O)C(NC(=O)CCCCCN)c3ccc(O)cc3)C(=O)N[C@H](c3ccc(O)cc3)C(=O)N[C@H]4C(=O)N[C@@H](C(=O)N2C)c2ccc(cc2)Oc2cc1ccc2O (some centres unmarked) | cell viability, CellTiter-Glo | 48 h | concentration without cytotoxicity | > 256 µg/mL |
| C=C(C)[C@@H]1CC[C@]2(C(=O)NC3CCCCC3)CC[C@]3(C)[C@H](CC[C@@H]4[C@@]5(C)CCCNC(C)(C)[C@@H]5CC[C@]43C)[C@@H]12 | cell growth or viability, resazurin | 20 h | CC50 | > 20 µM |
| CN1C(=O)[C@@H]2NC(=O)[C@@H]3NC(=O)[C@@H](c4ccc(O)cc4)NC(=O)[C@H](NC(=O)C(N)c4ccc(O)cc4)Cc4c[nH]c5cc(ccc45)-c4cc3cc(c4O)Oc3ccc(cc3)C[C@H]1C(=O)N[C@@H](C(=O)NCCC[N+](C)(C)C)c1ccc(O)c(c1)Oc1ccc2cc1 (some centres unmarked) | cell viability, CellTiter-Glo | 48 h | concentration without cytotoxicity | > 256 µg/mL |
| COc1cc2c3cc1Oc1cc(ccc1O)CC1c4c(cc(OC)c(O)c4Oc4ccc(cc4)CC3N(C)CC2)CCN1C (centres unmarked) | cell growth or viability, MTT | 24 h | CC50 | 104 µM |
| C[C@@](O)(C(F)F)[C@H](NC(=O)c1ccc(C#CC#CC2CC2)cc1)C(=O)NO | CellTiter-Glo | 24 h | LD50 | > 128 µg/mL |
| COC1CC(=O)N(C)C=CCCCC(=O)N(C)C(C(C)C)C(=O)N(C)C(CC(C)C)C(=O)OC(C(C)C)CC(C)C1 (centres unmarked) | MTT | up to 100 µM, 24 h | cytotoxicity | not toxic |

Some of these lines once more:
| Structure (SMILES) | assay | setting | measurement | result |
| --- | --- | --- | --- | --- |
| CC[C@H](C)[C@H](NC(=O)[C@H](CCCNC(=N)N)NC(=O)[C@H](Cc1ccccc1)NC(=O)[C@H](CC(C)C)NC(=O)[C@H](CCCCN)NC(=O)[C@H](CO)NC(=O)[C@@H](NC(=O)[C@H](CC(C)C)NC(=O)[C@H](CCCCN)NC(=O)[C@H](C)NC(=O)[C@H](CC(N)=O)NC(=O)[C@H](CCCNC(=N)N)NC(=O)[C@H](Cc1ccc(O)cc1)NC(=O)[C@H](C)NC(=O)[C@@H](NC(=O)[C@H](CCCCN)NC(=O)[C@H](CC(N)=O)NC(=O)[C@H](CCCCN)NC(=O)[C@H](CC(C)C)NC(=O)[C@H](CO)NC(=O)[C@H](CC(C)C)NC(=O)[C@H](C)NC(=O)[C@H](C)NC(=O)[C@H](CO)NC(=O)[C@@H](NC(=O)[C@@H](NC(=O)[C@H](Cc1c[nH]c2ccccc12)NC(=O)[C@@H](NC(=O)[C@H](CO)NC(=O)[C@@H](NC(=O)[C@@H](N)CC(C)C)C(C)C)C(C)C)[C@@H](C)CC)[C@@H](C)CC)C(C)C)C(C)C)C(=O)N[C@@H](C)C(=O)N[C@@H](CC(C)C)C(=O)O | MTT | 128 µg/mL, 24 h | cell death | 12.2% |
